# Results from different studies.
# Every numbered part comes from another study and shows a few of its results, in no order. Substitutions count along the parent as printed.

# Block 1
# Cell line: sample F normal colon organoid
# Technique: CellTiter-Glo
# Tested at: 1 µM
# Time: 4 days
# Baseline: DMSO
SMILES,viability
O=C(Nc1cccnn1)N1CCC(=Cc2cccc(Oc3ccc(C(F)(F)F)cn3)c2)CC1,99.7%
C[C@@]1(Cc2ccc(C#N)cc2)C(=O)N(c2cc(Cl)cc(Cl)c2)c2ncc(C(=O)NC3(c4nc(C5CCC5)no4)CC3)n21,91.9%
CN(c1ccnc(CNc2nc(Nc3ccc4c(c3)CC(=O)N4)ncc2C(F)(F)F)n1)S(C)(=O)=O,108%
C[C@H](NC(=O)c1cnc2n1[C@](C)(Cc1ccc(C#N)cc1)C(=O)N2c1cc(Cl)c(F)c(Cl)c1)C(=O)NC1(c2ccccn2)CC1,109%
C[C@H](c1ccc(F)cc1)N(Cc1cccc(C(=O)O)c1)C(=O)c1cnc2ccccc2c1,101%

# Block 2
# Target: cAMP-dependent protein kinase catalytic subunit alpha (PRKACA, Homo sapiens, UniProt P17612)
# Effect on: enzyme activity
# Mode: inhibitor
# Tested at: 0.5 µM
# Baseline: control
SMILES,remaining activity
Cn1sc(=O)n(Cc2ccccc2)c1=O,105%
COc1cc2nccc(Oc3ccc(NC(=S)NC(=O)c4ccccc4C)cc3)c2cc1OC,91.8%
O=C1NC(=O)C(c2cn(CCCn3ccnc3)c3ccccc23)=C1Nc1ccccc1,94%
OCC(O)CCON=C1C(c2c(O)[nH]c3ccccc23)=Nc2ccccc21 (stereo not shown),89.1%
Cc1ccc(Nc2nccc(N(C)c3ccc4c(C)n(C)nc4c3)n2)cc1S(N)(=O)=O,94.5%
Nc1ncnc2n[nH]c(Nc3ccc(F)cc3)c12,96.8%
Cc1ccc(NC(=O)c2ccc(CN3CCN(C)CC3)cc2)cc1Nc1nc(-c2cccnc2)cs1,104%

# Block 3
# Target: RING finger protein unkempt homolog, zinc fingers 1-6, GST-SBP tag (UNK, Homo sapiens, UniProt Q9C0B0, residues 30-357)
# Technique: RNA Bind-n-Seq
# Molecule type: RNA
# Sample: in vitro
# Tested at: not given
# Notes: RNA with constant flanks, human and mouse sites, ends assumed
# Baseline: input RNA pool
# Reading: higher = stronger binding
# Constant ends, left off below: GGGAGUUCUACAGUCCGACGAUC … CAACAGAGGAUUGAGCAUCA
# Construct (chain): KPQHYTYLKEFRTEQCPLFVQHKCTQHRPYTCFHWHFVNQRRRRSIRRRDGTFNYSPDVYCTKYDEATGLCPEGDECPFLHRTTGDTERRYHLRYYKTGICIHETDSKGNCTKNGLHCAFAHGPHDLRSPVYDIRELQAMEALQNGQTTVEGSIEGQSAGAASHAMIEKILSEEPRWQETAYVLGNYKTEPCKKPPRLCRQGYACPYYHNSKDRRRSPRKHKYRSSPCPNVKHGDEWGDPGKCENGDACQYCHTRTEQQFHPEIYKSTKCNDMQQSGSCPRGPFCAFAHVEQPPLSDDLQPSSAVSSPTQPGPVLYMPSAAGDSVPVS
Oligonucleotide,bound/input enrichment [ratio]
GAAAUUUUGAAAUGGUAUCUCAACAAGAUAAAGUUUGAUAAAUCUGUUGAUCCAGAAAUCAUAGCUCGAGGGACUGUUGGGUUCUCUGGAGCAGAGUUGGAGAAUCUUGUGAACCAAGCU,0.278
AGAGACCUUCUGAAGACGUUUAAAAUCUCAUCUGACACCUUUGUAACCUACAUGAUGACUUUAGAAGACCAUUACCAUUCUGAUGUGGCAUAUCACAACAGCCUGCAUGCUGCUGACGUG,0.121
CCAAUUGACAAUGGUUCAAAAAUCACCAGCUACCUUUUAGAAUGGGAUGAGGGAAAGAGAAACAGUGGUUUCAGACAGUGUUUCUUUGGAAGCCAGAAGCACUGCAAACUGACAAAGCUC,0.355
ACUCCCCUCCCUCUAACAGCAGGCUGUGUGGGUUUCAAUUCCCAUCCUUCCCACCCCGGCUAGGUGUCGUCCACCCUGUAUCCUGUGUCUGAGUGUGUGUGGGGGGGUUCUGUACUAAUU,0.239
CGGCCUGGGAGGCGCGCAGCCGGCGGCCAGAGCGGCUUGUGGGAAGCGGACUUUCACGCAGGCAACGGCGGUGGCUCGUUACUGACUGGAAGCCGAUCAGGAGAACAAGCUCUGGUGUCC,0.082
ACCACCCACACCACCCUGGAGCACUCUGAUUGUGCCUUCAUGGUAGACAAUGAGGCCAUCUAUGAUAUCUGUCGUAGAAACCUCGACAUUGAGCGCCCAACCUACACUAACCUAAACAGG,0.155
UGCUACCAGACACUGACAGGGAUCAAGUUUGUGGUUCUAGCAGAUCCUAGGCAAGCUGGAAUAGAUUCUCUUCUCCGAAAGAUUUAUGAGAUUUACUCAGACUUUGCCCUCAAGAAUCCA,0.138
GAUCAGACCAGUAAGCCUGAUGAAACUGGUAAAAGUAGUGUGCUGACUGUAUCAAAUGUAUAUAGUAGUAAAUCAAGCAUCAAGGCUACUGUGGUCUCUUCUCCUAAAGCAAAAAGUACA,0.275

# Block 4
# Target: CRIPT, C-terminal peptide
# Technique: DHFR complementation, deep sequencing
# Sample: yeast
# Notes: single substitutions, model-inferred values
# Baseline: wild type
# Reading: higher = weaker binding
# Starting sequence: ERBIN, PDZ domain 1 (human); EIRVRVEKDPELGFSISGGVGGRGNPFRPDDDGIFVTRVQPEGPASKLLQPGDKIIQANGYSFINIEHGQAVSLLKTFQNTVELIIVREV; partner TKNYKQTSV
Variant,binding free energy change
G69H,0.108 kcal/mol
R5D,0.219 kcal/mol
A58F,1.49 kcal/mol
F14I,-1.21 kcal/mol
D31R,1.16 kcal/mol
D53V,0.631 kcal/mol
R3D,0.275 kcal/mol
S17I,0.972 kcal/mol

# Excerpt of the above (block 4):
Variant,binding free energy change
R5D,0.219 kcal/mol
A58F,1.49 kcal/mol
